Results collected from several papers.
Each numbered part is a random draw from the data of one study; scales do not carry over between parts. pEC50: −log10 of the molar value.
Chain of UniProt Q5S007 (whole entry, unmodified, looked up): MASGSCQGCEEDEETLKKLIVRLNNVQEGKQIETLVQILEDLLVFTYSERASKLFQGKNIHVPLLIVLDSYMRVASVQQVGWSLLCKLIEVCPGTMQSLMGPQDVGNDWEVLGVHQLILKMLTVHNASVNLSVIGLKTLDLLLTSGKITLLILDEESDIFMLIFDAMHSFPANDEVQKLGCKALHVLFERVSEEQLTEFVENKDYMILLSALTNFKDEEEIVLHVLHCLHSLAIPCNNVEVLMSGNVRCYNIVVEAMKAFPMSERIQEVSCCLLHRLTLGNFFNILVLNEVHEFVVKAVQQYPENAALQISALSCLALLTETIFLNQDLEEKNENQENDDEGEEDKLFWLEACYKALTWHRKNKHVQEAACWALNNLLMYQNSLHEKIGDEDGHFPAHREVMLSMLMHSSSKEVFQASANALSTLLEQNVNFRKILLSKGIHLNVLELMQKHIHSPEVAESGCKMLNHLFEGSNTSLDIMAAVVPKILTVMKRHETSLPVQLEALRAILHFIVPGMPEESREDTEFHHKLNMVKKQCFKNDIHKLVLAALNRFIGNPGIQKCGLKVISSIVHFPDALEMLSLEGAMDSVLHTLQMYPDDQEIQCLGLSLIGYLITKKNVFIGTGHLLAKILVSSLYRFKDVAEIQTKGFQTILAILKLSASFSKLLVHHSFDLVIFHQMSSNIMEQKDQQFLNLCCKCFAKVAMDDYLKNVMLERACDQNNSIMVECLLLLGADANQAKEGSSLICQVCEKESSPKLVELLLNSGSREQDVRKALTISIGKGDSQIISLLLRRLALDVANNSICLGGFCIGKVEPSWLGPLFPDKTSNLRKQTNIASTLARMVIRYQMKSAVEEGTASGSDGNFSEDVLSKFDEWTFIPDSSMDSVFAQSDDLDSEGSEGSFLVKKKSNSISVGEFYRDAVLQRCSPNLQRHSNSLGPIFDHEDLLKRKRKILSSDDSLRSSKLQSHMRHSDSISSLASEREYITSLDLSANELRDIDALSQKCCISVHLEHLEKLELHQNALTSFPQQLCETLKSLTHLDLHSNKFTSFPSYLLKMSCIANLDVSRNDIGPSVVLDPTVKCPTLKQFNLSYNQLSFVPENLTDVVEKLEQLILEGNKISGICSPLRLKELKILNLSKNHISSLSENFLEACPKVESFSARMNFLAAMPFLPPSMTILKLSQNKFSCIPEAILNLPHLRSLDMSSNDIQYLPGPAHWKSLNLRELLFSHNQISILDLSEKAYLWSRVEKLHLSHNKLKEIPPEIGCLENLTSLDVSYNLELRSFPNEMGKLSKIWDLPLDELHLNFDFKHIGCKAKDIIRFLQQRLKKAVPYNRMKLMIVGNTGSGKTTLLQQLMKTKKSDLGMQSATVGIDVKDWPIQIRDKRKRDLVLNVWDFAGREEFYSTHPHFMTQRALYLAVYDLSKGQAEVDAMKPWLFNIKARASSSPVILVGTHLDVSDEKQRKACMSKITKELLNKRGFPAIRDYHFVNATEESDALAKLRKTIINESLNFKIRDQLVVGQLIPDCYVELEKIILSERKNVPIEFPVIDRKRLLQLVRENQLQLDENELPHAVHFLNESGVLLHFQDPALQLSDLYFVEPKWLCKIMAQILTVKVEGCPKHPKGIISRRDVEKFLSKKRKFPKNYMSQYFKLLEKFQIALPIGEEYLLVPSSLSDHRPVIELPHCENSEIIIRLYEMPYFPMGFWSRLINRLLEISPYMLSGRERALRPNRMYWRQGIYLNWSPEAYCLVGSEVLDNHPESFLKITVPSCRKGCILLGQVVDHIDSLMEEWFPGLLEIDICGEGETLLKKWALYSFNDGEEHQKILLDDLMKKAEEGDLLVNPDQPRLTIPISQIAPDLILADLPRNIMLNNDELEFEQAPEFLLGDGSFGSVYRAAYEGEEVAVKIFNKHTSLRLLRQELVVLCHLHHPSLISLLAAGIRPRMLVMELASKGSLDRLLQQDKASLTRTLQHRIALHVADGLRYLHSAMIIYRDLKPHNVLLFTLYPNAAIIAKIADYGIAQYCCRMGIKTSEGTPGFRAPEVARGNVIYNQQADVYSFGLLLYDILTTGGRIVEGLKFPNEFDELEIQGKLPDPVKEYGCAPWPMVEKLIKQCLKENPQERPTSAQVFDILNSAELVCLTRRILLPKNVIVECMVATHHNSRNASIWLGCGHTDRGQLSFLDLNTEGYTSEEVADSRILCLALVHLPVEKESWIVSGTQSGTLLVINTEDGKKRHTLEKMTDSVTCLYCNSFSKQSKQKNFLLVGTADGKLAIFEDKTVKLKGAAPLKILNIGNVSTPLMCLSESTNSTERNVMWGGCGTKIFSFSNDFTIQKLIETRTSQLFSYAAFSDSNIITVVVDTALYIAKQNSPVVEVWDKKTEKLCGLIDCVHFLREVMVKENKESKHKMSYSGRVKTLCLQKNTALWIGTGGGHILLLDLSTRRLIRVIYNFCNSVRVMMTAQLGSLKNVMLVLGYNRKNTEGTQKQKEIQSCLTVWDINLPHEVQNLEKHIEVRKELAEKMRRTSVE
Chain of UniProt P68400 (whole entry, looked up): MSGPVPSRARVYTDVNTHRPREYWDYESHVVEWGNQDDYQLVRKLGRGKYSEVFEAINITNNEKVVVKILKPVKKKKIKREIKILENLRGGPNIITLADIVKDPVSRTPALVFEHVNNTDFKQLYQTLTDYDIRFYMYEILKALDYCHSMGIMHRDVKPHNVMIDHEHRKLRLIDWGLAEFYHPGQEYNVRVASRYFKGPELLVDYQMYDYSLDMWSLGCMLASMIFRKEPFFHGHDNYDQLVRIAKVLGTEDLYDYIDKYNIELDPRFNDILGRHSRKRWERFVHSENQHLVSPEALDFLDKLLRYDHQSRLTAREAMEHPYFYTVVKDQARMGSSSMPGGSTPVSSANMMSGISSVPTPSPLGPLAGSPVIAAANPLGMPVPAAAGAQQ
Chain of UniProt Q99683 (whole entry, looked up): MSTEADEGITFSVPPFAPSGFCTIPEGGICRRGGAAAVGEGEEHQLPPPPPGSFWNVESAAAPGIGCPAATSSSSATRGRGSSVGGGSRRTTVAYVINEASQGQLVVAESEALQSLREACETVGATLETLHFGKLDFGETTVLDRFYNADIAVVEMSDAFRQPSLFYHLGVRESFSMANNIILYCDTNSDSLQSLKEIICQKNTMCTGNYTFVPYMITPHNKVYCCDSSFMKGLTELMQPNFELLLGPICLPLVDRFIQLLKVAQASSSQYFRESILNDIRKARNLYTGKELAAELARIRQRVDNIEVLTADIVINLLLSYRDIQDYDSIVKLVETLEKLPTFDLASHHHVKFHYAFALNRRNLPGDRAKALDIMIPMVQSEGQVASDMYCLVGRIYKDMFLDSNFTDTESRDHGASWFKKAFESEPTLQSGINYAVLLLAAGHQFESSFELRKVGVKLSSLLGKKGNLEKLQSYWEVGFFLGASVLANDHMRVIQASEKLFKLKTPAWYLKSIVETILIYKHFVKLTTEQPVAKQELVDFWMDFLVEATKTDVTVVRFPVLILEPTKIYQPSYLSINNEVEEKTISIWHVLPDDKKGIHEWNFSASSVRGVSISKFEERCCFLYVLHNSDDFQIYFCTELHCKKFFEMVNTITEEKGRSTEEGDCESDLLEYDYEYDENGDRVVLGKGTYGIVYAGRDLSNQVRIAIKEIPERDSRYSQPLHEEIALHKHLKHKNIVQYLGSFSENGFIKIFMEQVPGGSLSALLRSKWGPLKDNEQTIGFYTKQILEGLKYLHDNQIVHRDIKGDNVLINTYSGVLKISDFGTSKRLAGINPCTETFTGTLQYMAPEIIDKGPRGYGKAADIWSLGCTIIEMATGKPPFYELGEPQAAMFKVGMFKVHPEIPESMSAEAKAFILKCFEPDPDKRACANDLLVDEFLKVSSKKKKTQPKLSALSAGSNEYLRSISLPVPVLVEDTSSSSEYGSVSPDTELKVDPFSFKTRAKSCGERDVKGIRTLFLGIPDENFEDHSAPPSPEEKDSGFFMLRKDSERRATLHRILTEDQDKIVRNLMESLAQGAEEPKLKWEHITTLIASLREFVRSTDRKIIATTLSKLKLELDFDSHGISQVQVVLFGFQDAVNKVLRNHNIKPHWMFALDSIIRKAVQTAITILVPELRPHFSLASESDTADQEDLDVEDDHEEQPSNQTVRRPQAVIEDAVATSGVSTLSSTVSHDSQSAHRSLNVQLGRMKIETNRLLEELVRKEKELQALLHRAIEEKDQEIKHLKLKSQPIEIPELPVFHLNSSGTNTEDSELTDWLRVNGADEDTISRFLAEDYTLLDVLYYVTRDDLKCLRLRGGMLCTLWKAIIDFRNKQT
Chain of UniProt P52564 (whole entry, looked up): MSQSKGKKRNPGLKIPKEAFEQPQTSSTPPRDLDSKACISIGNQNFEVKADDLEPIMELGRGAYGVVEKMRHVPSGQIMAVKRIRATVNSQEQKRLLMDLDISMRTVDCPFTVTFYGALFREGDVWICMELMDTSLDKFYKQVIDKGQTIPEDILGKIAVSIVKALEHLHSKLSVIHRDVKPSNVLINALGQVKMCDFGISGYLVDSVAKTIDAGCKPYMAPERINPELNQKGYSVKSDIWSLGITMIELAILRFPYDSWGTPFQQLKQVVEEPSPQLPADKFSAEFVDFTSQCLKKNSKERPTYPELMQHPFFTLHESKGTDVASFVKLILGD

Set 1
Structure (SMILES): Cc1cc(NC(=O)c2cccc(S(F)(F)(F)(F)F)c2)cc(-n2ccn3nc(-c4cccnc4)cc23)c1
Effect on: cell-free assay
Technique: competition with immobilised ligand
Tested at: 1 µM
Quantity: remaining binding
LRRK2 (Homo sapiens, UniProt Q5S007, G2019S): 81.3%
CHEK1 (Homo sapiens, UniProt O14757): 72%
PRKACB (Homo sapiens, UniProt P22694): 100%
MERTK (Homo sapiens, UniProt Q12866): 100%
CSNK2A1 (Homo sapiens, UniProt P68400): 66.7%
CSF1R (Homo sapiens, UniProt P07333): 100%
MAPK4 (Homo sapiens, UniProt P31152): 50.4%
CDK11B (Homo sapiens, UniProt P21127): 100%
MAP4K3 (Homo sapiens, UniProt Q8IVH8): 100%
FLT3 (Homo sapiens, UniProt P36888, N841I): 100%
PIK3CA (Homo sapiens, UniProt P42336, E545K): 72.5%
MAP3K5 (Homo sapiens, UniProt Q99683): 100%
CSNK1G2 (Homo sapiens, UniProt P78368): 95.4%

Set 2
Host: mouse
Medium: microsomes or S9
Tested at: 2 µM
Time: 0.5 h
Quantity: remaining compound
COc1ccc2[nH]cc(CCN3C(=O)c4[nH]nc(-c5ccco5)c4C3c3cccc(O)c3)c2c1 (centres unmarked): 3.08%
COc1ccc(OC)c(C(c2c(O)cc(C)n(C)c2=O)c2c(O)cc(C)n(C)c2=O)c1: 57.8%
COCCCNC1=NCCNC12CCN(S(=O)(=O)c1ccc(F)cc1)CC2: 51.8%
Cc1c[nH]c(CN2CCCCC2CCn2cccn2)c(C)c1=O (centres unmarked): 71.5%
Cc1cc(C)n(Cc2nnc(Nc3ccccc3)o2)n1: 2.21%
Cn1c(N2CCN(C(=O)c3cc4cc(Cl)ccc4[nH]3)CC2)cc(=O)n(C)c1=O: 55%
CCOC(=O)c1[nH]c(C)c(C(=O)CN(CC(C)C)C(=O)CC)c1C: 0.0742%
CCC(CC)(CC)NC(=O)C1CCN(S(=O)(=O)CC)CC1: 4.68%
COC(=O)c1c(CC(=O)N2CCCC2C2CCCCC2)[nH]c(C(C)=O)c1C (centres unmarked): 0.243%
Cc1cccc(NC(=O)C2ON=CC2C(=O)N2CCOCC2)c1 (centres unmarked): 75.7%
O=C(CN1CCOCC1)N1CCC(c2nc(CCOCC3CCOCC3)no2)C1 (centres unmarked): > 100%

Set 3
Target: Beta-1 adrenergic receptor (ADRB1, Homo sapiens, UniProt P08588)
Chain of UniProt P08588 (whole entry, looked up): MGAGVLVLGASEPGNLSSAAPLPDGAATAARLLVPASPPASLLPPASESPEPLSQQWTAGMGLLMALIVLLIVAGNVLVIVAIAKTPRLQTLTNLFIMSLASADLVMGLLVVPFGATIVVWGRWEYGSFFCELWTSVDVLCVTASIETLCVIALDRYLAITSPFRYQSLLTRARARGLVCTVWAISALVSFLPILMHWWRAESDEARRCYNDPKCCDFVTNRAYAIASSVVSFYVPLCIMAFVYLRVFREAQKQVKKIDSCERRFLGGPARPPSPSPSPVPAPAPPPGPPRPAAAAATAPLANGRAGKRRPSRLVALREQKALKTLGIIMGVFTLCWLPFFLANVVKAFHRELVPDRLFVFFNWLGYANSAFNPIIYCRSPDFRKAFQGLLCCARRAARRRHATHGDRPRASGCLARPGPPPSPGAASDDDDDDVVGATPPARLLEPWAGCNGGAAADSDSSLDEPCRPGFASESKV
Action: agonist
Quantity: pEC50
CN(Cc1ccc(CCN)cc1)Cc1ccc2nsnc2c1: ≤ 4.00
O=C1COC[C@H]([C@H](O)c2ccc(NC(=O)c3ccc(C(F)(F)F)cc3)cc2)N1: ≤ 4.00
CN(Cc1ccccc1)Cc1cc(CC2(NCc3ccc(N(C)C)cc3)COC2)no1: ≤ 4.00
O=c1c2nc(-c3cccc(C(F)(F)F)c3)ccc2ncn1Cc1ccccn1: ≤ 4.00
OC(c1ccccc1)c1nc(Nc2ccc(F)cc2)n[nH]1 (centres unmarked): 4.35
O=c1oc2ccc(Cl)cc2cc1-c1nc2c(s1)CCc1ccccc1-2: 5.80
O=C(NCCc1nccc(-c2ccccc2)n1)c1ccc2cccc(F)c2n1: ≤ 4.00
COc1ccccc1N1CCN(c2ccc3ccccc3n2)CC1: ≤ 4.00
CCCCNCc1ccc(OCC(O)CN2CCSCC2)c(OC)c1 (centres unmarked): ≤ 4.00
C[C@@H](c1ccc2nccn2c1)n1nnc2ncc(-c3cnn(C)c3)nc21: ≤ 4.00
O=C(COc1ccccc1)Nc1ccc([C@@H](O)[C@H]2COCC(=O)N2CC2CC2)cc1: ≤ 4.00
OC(CN1CCN(c2cccc(Cl)c2)CC1)C(c1ccccc1)c1ccccc1 (centres unmarked): ≤ 4.00

Set 4
SMILES: CSc1nc(-c2ccnc(N[C@@H](C)c3ccccc3)c2)c(-c2ccc(F)cc2)[nH]1 (racemic)
Effect on: enzyme activity
Action: inhibitor
Tested at: 0.5 µM
Reference: control
Quantity: remaining activity
AKT3 (Homo sapiens, UniProt Q9Y243): 91.5%
EPHA5 (Homo sapiens, UniProt P54756): 106%
BTK (Homo sapiens, UniProt Q06187): 76.6%
LYN (Homo sapiens, UniProt P07948): 98.5%
WNK2 (Homo sapiens, UniProt Q9Y3S1): 118%
NEK4 (Homo sapiens, UniProt P51957): 102%
MAP3K10 (Homo sapiens, UniProt Q02779): 90.6%
LRRK2 (Homo sapiens, UniProt Q5S007): 100%
MAPK13 (Homo sapiens, UniProt O15264): 93.9%
CSNK2A1 (Homo sapiens, UniProt P68400): 100%
MAP2K6 (Homo sapiens, UniProt P52564): 80.5%

For quick reference, copied from above (set 1):
PRKACB (Homo sapiens, UniProt P22694): 100%
MERTK (Homo sapiens, UniProt Q12866): 100%
CSNK2A1 (Homo sapiens, UniProt P68400): 66.7%
CSF1R (Homo sapiens, UniProt P07333): 100%
MAPK4 (Homo sapiens, UniProt P31152): 50.4%
